Published values collected from several papers.
Each line is one published result; not all experiments were run side by side. Numbers after ± are the reported error. ≈ marks a conversion by molar mass, not a printed value.

Molecule	test	test system	setting	scale	measurement	result
NC(=O)c1nc(F)c[nH]c1=O	UV-Vis spectrophotometry	supercritical CO2	120 min, 318 K, 21 MPa, 823.70 kg/m^3	–	solubility	801 µg/mL (≈ 5.1 mM)
CC(C)C[C@@H](N)C(=O)N[C@H]1C(=O)N[C@@H](CC(N)=O)C(=O)N[C@H]2C(=O)N[C@H]3C(=O)N[C@H](C(=O)N[C@H](C(=O)O)c4cc(O)cc(O)c4-c4cc3ccc4O)[C@H](O)c3ccc(c(Cl)c3)Oc3cc2cc(c3O[C@@H]2O[C@H](CO)[C@@H](O)[C@H](O)[C@H]2O[C@H]2C[C@](C)(N)[C@H](O)[C@H](C)O2)Oc2ccc(cc2Cl)[C@H]1O	–	New Zealand White rabbit, ciliary body	continuous topical ocular, dose not given, 24 h	reference: eye drops	AUC(0-24) ratio	~10 fold
CC(=O)N[C@H](C(=O)N[C@@H](CO)C(=O)N[C@@H](CCCNC(=N)N)C(=O)N[C@@H](CCCNC(=N)N)C(=O)N[C@@H](CCCNC(=N)N)C(N)=O)C(C)C	–	healthy adults	intravenous infusion, 1 mg/kg every 6 h, over 30 min, maximum among subjects	reference: dose 2 over dose 1	AUC(tau) accumulation ratio	1.4
O=C(c1ccc(F)c(F)c1Nc1ccc(I)cc1F)N1CC(O)([C@@H]2CCCCN2)C1	measured: retinal detachment	human patients	oral, dose not given, dose escalation, tablet, grade G1	–	treatment-related adverse events	0%
O=S(=O)(O)Oc1ccc(-c2cccc(Cl)c2)cc1Cl	–	Sprague-Dawley rat (male), liver, serum, kidneys, lungs, brain	iv, 575 µg/kg, 3 min	–	dose fraction in tissues	~95%
bleomycin	–	C57BL/6N mice, pulmonary fibrosis model	intratracheal, 1.5 units/kg once, day 0	reference: initial	body weight	80%
CSCC[C@@H]1NC(=O)[C@H](CC(=O)O)NC(=O)CNC(=O)[C@H](CCCNC(=N)N)NC(=O)[C@H](C)NC(=O)[C@H](CCC(=O)O)NC(=O)[C@H](CCCNC(=N)N)NC(=O)[C@@H]2CSSC[C@@H]3NC(=O)[C@H](CO)NC(=O)[C@H]([C@@H](C)O)NC(=O)[C@@H]4CCCN4C(=O)[C@H](C)NC(=O)[C@H](Cc4c[nH]c5ccccc45)NC(=O)[C@H](CC(=O)O)NC(=O)CNC(=O)[C@H](CCCNC(=N)N)NC(=O)CNC(=O)[C@H](CCC(N)=O)NC(=O)[C@@H]4CCCN4C(=O)[C@@H](NC(=O)CNC(=O)C(C)F)CSSC[C@H](NC(=O)CNC(=O)[C@H](C)NC(=O)[C@H](CC(C)C)NC(=O)[C@H](CSSC[C@@H](C(=O)NCC(N)=O)NC(=O)[C@H]([C@@H](C)O)NC(=O)[C@H](CCCNC(=N)N)NC(=O)[C@@H]4CCCN4C1=O)NC(=O)[C@H](CC(=O)O)NC(=O)[C@H](CO)NC(=O)[C@H](CC(=O)O)NC(=O)[C@H](CCC(N)=O)NC(=O)[C@H](CO)NC3=O)C(=O)N[C@@H](C(C)C)C(=O)N2 (some centres unmarked) [fluorine-18 labelled]	–	nude mice U-87 MG xenograft, blood	intravenous, 2.5 h	–	tissue uptake	0.29 ± 0.09 %ID/g
[123I]c1cncc(OC[C@@H]2CCN2)c1	SPECT	human, brain cortex	intravenous bolus plus infusion, 8.1 mCi	reference: plasma	tissue/plasma ratio	18.7
Cc1ccc(Nc2nccc(N(C)c3ccc4c(C)n(C)nc4c3)n2)cc1S(N)(=O)=O	–	patients with gastric acid suppression, plasma	oral, 600 mg once daily, 24 h, with food, first steady state, geometric mean	–	Cmin	26000 ng/mL
CN[C@@](C)(C[18F])C(=O)O	–	SCID mouse SK-OV-3 xenograft, muscle	120 min, post injection	–	tissue uptake	0.7 ± 0.2 %ID/g
ClC(Cl)(Cl)Cl	–	Sprague-Dawley rat, male, liver	oral, 50 mg/kg, 6 h, single low dose	direction not given	hepatocyte vacuolization score	0
CCCCCCCCCCCCCC[N+](C)(C)C	in vitro-in vivo extrapolation	human	–	–	hepatic clearance	0.505 mL/h/g liver
CC(C)c1nc(N(C)S(C)(=O)=O)nc(-c2ccc(F)cc2)c1/C=C/[C@@H](O)C[C@@H](O)CC(=O)O	–	healthy volunteers, plasma	oral, dose not given, together with: 2D regimen	–	AUC	30.7 ng·h/mL
CC(C)C[C@H](NC(=O)[C@H](CCC(=O)O)NC(=O)[C@H](CCC(=O)O)NC(=O)[C@H](CC(=O)O)NC(=O)[C@H](CCC(=O)O)NC(=O)[C@H](CCC(=O)O)NC(=O)[C@H](CCC(=O)O)NC(=O)[C@@H](N)CC(=O)O)C(=O)O	–	rat, plasma	subcutaneous, 11.0 mg/kg single dose, 90 min	–	plasma concentration	2360 ng/mL
CC(C)C[C@@H]1NC(=O)[C@@H]2CSSC[C@@H](C(=O)NCC(N)=O)NC(=O)[C@H](Cc3ccccc3)NC(=O)CNC(=O)[C@H](CC(N)=O)NC(=O)[C@@H]3CCCN3C(=O)CNC(=O)[C@@H]3CSSC[C@H](NC(=O)[C@H](CO)NC(=O)[C@H]([C@@H](C)O)NC(=O)[C@@H]4CCCN4C(=O)[C@H](C)NC(=O)[C@H](Cc4c[nH]c5ccccc45)NC(=O)[C@H](CC(=O)O)NC(=O)CNC(=O)[C@H](CCCNC(=N)N)NC(=O)CNC(=O)[C@H](CCC(N)=O)NC(=O)[C@@H]4CCCN4C(=O)[C@@H](NC(=O)CNC(=O)c4ccc(F)cc4)CSSC[C@H](NC(=O)CNC(=O)[C@H](C)NC1=O)C(=O)N[C@@H](C(C)C)C(=O)N3)C(=O)N[C@@H](CO)C(=O)N[C@@H](CCC(N)=O)C(=O)N[C@@H](CC(=O)O)C(=O)N[C@@H](CO)C(=O)N[C@@H](CC(=O)O)C(=O)N2 [fluorine-18 labelled]	microPET imaging	nude mice, U-87 MG xenograft, tumour	intravenous, 4.44 MBq, 1 h	–	tumour uptake	1.46 ± 0.35 %ID/g
CC(=O)N[C@H](CCCCNC(=O)C(C)F)C(=O)N[C@@H](CS)C(=O)N[C@@H](CS)C(=O)N[C@@H](CCC(=O)O)C(=O)N[C@@H](Cc1c[nH]cn1)C(=O)N[C@H](Cc1ccccc1)C(=O)N[C@@H](CCCNC(=N)N)C(=O)N[C@@H](Cc1c[nH]c2ccccc12)C(=O)N[C@@H](CS)C(=O)N[C@@H](CCCNC(=N)N)C(=O)N1CCC[C@H]1C(=O)N[C@H](C(N)=O)C(C)C (some centres unmarked) [fluorine-18 labelled]	–	C57BL/6 mouse male B16-F10 tumour, liver	intravenous, 2 h	–	tissue uptake	0.78 ± 0.05 %ID/g
CC[C@H](C)[C@H](NC(=O)[C@@H](N)CCCNC(=N)N)C(=O)N[C@H](C(=O)N1CCC[C@H]1C(=O)N[C@@H](C)C(N)=O)C(C)C	–	healthy volunteers, both sexes, plasma	intravenous infusion, 6.5 mg/kg daily, day 7, multiple ascending dose	–	Tmax	4 min
CC(C)c1nc(CN(C)C(=O)N[C@H](C(=O)N[C@@H](Cc2ccccc2)C[C@H](O)[C@H](Cc2ccccc2)NC(=O)OCc2cncs2)C(C)C)cs1	in situ brain perfusion	CF-1 mouse, wild type, male	1 µM, pH 7.4	–	brain uptake clearance Kin	1.8 mL/100 g/min
COc1cccc2c1C(=O)c1c(O)c3c(c(O)c1C2=O)C[C@@](O)(C(=O)CO)C[C@@H]3O[C@H]1C[C@H](N)[C@H](O)[C@H](C)O1	two-compartment model	ICR mice, male, plasma	intravenous, 6.0 mg/kg	–	distribution half-life	2.7 min
O[C@H]1CCCN[C@@H]1CCCn1cnc2c(Cl)c(Cl)ccc21	–	healthy volunteers, urine	oral, 100 mg solution single, geometric mean	–	renal clearance (0-72 h)	431 mL/min
CC[C@@]1(O)C(=O)OCc2c1cc1n(c2=O)Cc2cc3c(CN(C)C)c(O)ccc3nc2-1	–	human patients, plasma	oral, 2.5 mg daily for 5 days, geometric mean, together with: pazopanib 800 mg daily	–	AUC(0-inf)	66.6 ng·h/mL
CCCCCOc1ccc(-c2ccc(-c3ccc(C(=O)N[C@H]4C[C@@H](O)[C@@H](O)NC(=O)[C@@H]5[C@@H](O)[C@@H](C)CN5C(=O)[C@H]([C@@H](C)O)NC(=O)[C@H]([C@H](O)[C@@H](O)c5ccc(O)cc5)NC(=O)[C@@H]5C[C@@H](O)CN5C(=O)[C@H]([C@@H](C)O)NC4=O)cc3)cc2)cc1	–	patients aged sample A to <sample B years, plasma	intravenous, loading 200 then 100 mg daily	–	AUC(0-24) steady state mean	83800 ng·h/mL
CCOC(=O)c1cncn1C1(c2ccccc2)CC1	serum corticosterone, inhibitor	Sprague-Dawley rat	intravenous, 15 min, 50% reduction, together with: ACTH1-24	–	ID50	2 ± 0.2 mg/kg
